{"data": "Assay results from different studies", "note": "Values joined by “and” are separate records of one study, mostly repeats; a detail may differ."}
{"Compound": "NC(=O)c1cnc2[nH]ccc2c1N[C@@H]1[C@@H]2CC3C[C@H]1C[C@@](O)(C3)C2", "assay": "CD8+ effector memory T cells, flow cytometry", "test system": "Caucasian humans, peripheral blood", "conditions": "60 mg single dose", "how to read": "reference: baseline", "endpoint": "percent change", "result": "0.33%"}
{"Compound": "OC(CCN1CCCCC1)(c1ccccc1)C1CC2C=CC1C2 (stereo not shown)", "assay": "resting-state EEG", "test system": "healthy elderly humans", "conditions": "oral, 2 mg, eyes open, LS mean", "how to read": "reference: baseline", "endpoint": "change in EEG Beta1-power Pz-O1", "result": "-0.2%"}
{"Compound": "CC(C)NCC(O)c1ccc(O)c(O)c1 (stereo not shown)", "target or system": "mouse ventricular cardiomyocytes", "conditions": "dose not given, 0.152 s", "endpoint": "sarcomere length", "result": "1.58 µm"}
{"Compound": "CCn1cc(-c2cc(Cn3ccnc3)cc3c2CCN([C@H](c2cc(OC)ccn2)C2CC2)C3=O)c(C(F)(F)F)n1", "target or system": "NCI-H2228", "assay": "cell growth, inhibitor", "conditions": "120 h", "endpoint": "EC50", "result": "17100 nM"}
{"Compound": "CC(=O)NC[C@H]1CN(c2ccc(N3CCOCC3)c(F)c2)C(=O)O1", "target or system": "Streptococcus pyogenes", "test system": "10 isolates", "conditions": "pH 5.5", "endpoint": "MIC50", "result": "1 µg/mL"}
{"Compound": "COc1cnc2cccc(N3CCc4c(cc(Cn5ccnc5C)cc4-c4cn(C)nc4C(F)(F)F)C3=O)c2c1", "target or system": "KP-4", "assay": "cell growth, inhibitor", "conditions": "120 h", "endpoint": "EC50", "result": "259 nM"}
{"Compound": "Cn1cc(-c2ccc(-c3cncc(Cl)c3N3CCC4(CCNC4=O)CC3)cc2)cn1", "target or system": "COLO 205", "assay": "microarray, measured: CD55", "conditions": "concentration not given, 6 h, gene set DAF", "how to read": "reference: untreated cells", "endpoint": "fold change in expression", "result": 1.56}
{"Compound": "Oc1ccccc1-c1n[nH]cc1-c1ccnc2ccccc12", "target or system": "CDC7 (Candida albicans)", "assay": "kinase binding, MIB/MS competition", "test system": "Candida albicans lysate", "conditions": "1 µM", "how to read": "reference: DMSO", "endpoint": "log2 fold change", "result": -0.01}
{"Compound": "CC[S+]([O-])c1nc(-c2ccccc2)cc(C(F)(F)F)n1 (stereo not shown)", "target or system": "importin alpha/beta-1", "assay": "cMyc nuclear import, high content imaging", "test system": "HeLa Kyoto reporter", "conditions": "1.58 µM, 2 h", "endpoint": "cells with nuclear reporter", "result": "73% and 88.1% and 60.7% and 72.1%"}
{"Compound": "CN[C@H](CC(C)C)C(=O)N[C@H]1C(=O)N[C@@H](CC(N)=O)C(=O)N[C@H]2C(=O)N[C@H]3C(=O)N[C@H](C(=O)N[C@H](C(=O)O)c4cc(O)cc(O)c4-c4cc3ccc4O)[C@H](O)c3ccc(c(Cl)c3)Oc3cc2cc(c3O[C@@H]2O[C@H](CO)[C@@H](O)[C@H](O)[C@H]2O[C@H]2C[C@](C)(N)[C@H](O)[C@H](C)O2)Oc2ccc(cc2Cl)[C@H]1O", "target or system": "Streptococcus pyogenes", "assay": "broth microdilution", "endpoint": "MIC90", "result": "1 µg/mL"}
{"Compound": "c1coc(-c2n[nH]cc2-c2ccnc3ccccc23)c1", "target or system": "CDC7 (Candida albicans)", "assay": "kinase binding, MIB/MS competition", "test system": "Candida albicans lysate", "conditions": "10 µM", "how to read": "reference: DMSO", "endpoint": "log2 fold change", "result": -0.05}
{"Compound": "CCn1cc(-c2cc(Cn3ccoc3=N)cc3c2CCN([C@@H](C)c2cc(OC)ccn2)C3=O)c(C(F)(F)F)n1", "target or system": "Lu-99", "assay": "cell growth, inhibitor", "conditions": "120 h", "endpoint": "EC50", "result": "185 nM"}
{"Compound": "O=C(O)CNC(=O)Cc1ccccc1", "test system": "ventricular cardiomyocytes, C57BL/6 mouse", "conditions": "dose not given, 0.616 s", "endpoint": "sarcomere length", "result": "1.69 µm"}
{"note": "A few entries again:"}
{"Compound": "c1coc(-c2n[nH]cc2-c2ccnc3ccccc23)c1", "target or system": "CDC7 (Candida albicans)", "assay": "kinase binding, MIB/MS competition", "test system": "Candida albicans lysate", "conditions": "10 µM", "how to read": "reference: DMSO", "endpoint": "log2 fold change", "result": -0.05}
{"Compound": "COc1cnc2cccc(N3CCc4c(cc(Cn5ccnc5C)cc4-c4cn(C)nc4C(F)(F)F)C3=O)c2c1", "target or system": "KP-4", "assay": "cell growth, inhibitor", "conditions": "120 h", "endpoint": "EC50", "result": "259 nM"}
